Experimental data collected from several papers.
Every numbered part comes from another study and shows a few of its results, in no order. Changes are numbered by the printed parent chain.

Sample 1
Target: Ras GTPase-activating protein-binding protein 1, RRM domain (G3BP1, Homo sapiens, UniProt Q13283)
Chain of UniProt Q13283 (whole entry, looked up): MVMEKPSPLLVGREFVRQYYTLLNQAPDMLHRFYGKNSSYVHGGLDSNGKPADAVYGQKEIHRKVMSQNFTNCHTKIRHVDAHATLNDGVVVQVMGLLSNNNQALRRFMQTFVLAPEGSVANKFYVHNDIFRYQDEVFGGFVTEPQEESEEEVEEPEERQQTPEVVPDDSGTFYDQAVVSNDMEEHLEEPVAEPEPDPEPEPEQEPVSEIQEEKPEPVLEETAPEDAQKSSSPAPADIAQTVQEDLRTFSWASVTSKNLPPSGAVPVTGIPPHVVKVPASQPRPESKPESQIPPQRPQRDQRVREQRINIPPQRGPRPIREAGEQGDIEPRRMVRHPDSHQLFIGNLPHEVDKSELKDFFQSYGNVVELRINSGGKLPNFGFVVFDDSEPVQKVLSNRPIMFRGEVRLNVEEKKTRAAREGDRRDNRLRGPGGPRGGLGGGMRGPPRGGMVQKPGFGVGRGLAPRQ
Method: RNA Bind-n-Seq
Form: RNA
Matrix: in vitro
Tested at: 1 µM
Setting: whole 134-nt RNA, ends assumed
With: 150 mM KCl
Baseline: input library
Direction: higher = stronger binding
Endpoint: log2 enrichment
Constant ends, left off below: GGGAGUUCUACAGUCCGACGAUC … UGGAAUUCUCGGGUGUCAAGG
Oligonucleotide = CCUGUGCUACACAUCGUAUGUACCGAAUCGGGCCCCCCCGGCCCCCCCGGGCCCCCCCGGGAAAGUAUUAUGUUACGCCGUUCGGAUCUG; result = -0.67
Oligonucleotide = CAAAAUACCAAGGGAUUUAUAUGAGGAUGAGUUGGUGCCCCUUUUUGAGAAGGCCGGACCCAUUUGGGAUCUACGUCUUAUGAUGGAUCC; result = -0.312
Oligonucleotide = UCCUGUGCUACACAUCGUAUGUACCGAAUCGGGGAGGGGAAAAAGGGGAAAAAAAGGGGAAAGUAUUAUGUUACGCCGUUCGGAUCUGCA; result = 0.591
Oligonucleotide = GUCCUGUGCUACACAUCGUAUGUACCGAAUCGGGCCCCGGGGCCCCGGGGCCCCGGGGAAAGUAUUAUGUUACGCCGUUCGGAUCUGCAC; result = -0.742
Oligonucleotide = CAAGUCCUGUGCUACACAUCGUAUGUACCGAAUCGGUUUUGGGGUUUUGGUUUUGGAAAGUAUUAUGUUACGCCGUUCGGAUCUGCACUU; result = -0.287
Oligonucleotide = CAAGUCCUGUGCUACACAUCGUAUGUACCGAAUCGGAAAAAAAGGUUUUUGGAGGAAAGUAUUAUGUUACGCCGUUCGGAUCUGCACUUC; result = -0.257
Oligonucleotide = CUCAAGUCCUGUGCUACACAUCGUAUGUACCGAAUCGGAAAGGAAAGGAAAGGGAAAGUAUUAUGUUACGCCGUUCGGAUCUGCACUUCC; result = -0.184
Oligonucleotide = UCCUCAAGUCCUGUGCUACACAUCGUAUGUACCGAAUCGGGGAGGAGGAGGGAAAGUAUUAUGUUACGCCGUUCGGAUCUGCACUUCCAG; result = -0.191
Oligonucleotide = CACAGACAACACGCACCCACACAGACACAGAGGGAAGGGGUUGGGAUGGGGACAGGGUGCACAGCAGGGCGGGGUAGGACCCCAGAAACU; result = -0.209
Oligonucleotide = CUGUGCUACACAUCGUAUGUACCGAAUCGGAAAAAAAGGGAAAAAAAGGGAAAAAAAGGGGAAAGUAUUAUGUUACGCCGUUCGGAUCUG; result = 0.0414
Oligonucleotide = AAGUCCUGUGCUACACAUCGUAUGUACCGAAUCGGUUUUUGGUUUUUUUGGUUUGGAAAGUAUUAUGUUACGCCGUUCGGAUCUGCACUU; result = -0.247
Oligonucleotide = UGGCCCUGGUGGCAUGCGGGGAGGAAGAGGUGGCCUCAUGGAUCGUGGUGGUCCCGGUGGAAUGUUCAGAGGUGGCCGUGGUGGAGAUAG; result = 1.69
Oligonucleotide = UGGUAGGUGGAUUUUGUUUAUUUUUUUAGCUCAUUUCCAGGGGUGGGAAUUUUUUUUUAAUAUGUGUCAUGAAUAAAGUUGUUUUUGAAA; result = 2.41
Oligonucleotide = UCCUGUGCUACACAUCGUAUGUACCGAAUCAAAUUUUUAAAUUUUUAAAUUUUUUUAAAAAAGUAUUAUGUUACGCCGUUCGGAUCUGCA; result = -0.00523

Sample 2
Target: Prothrombin, mature alpha-thrombin (F2, Homo sapiens, UniProt P00734)
Method: aptamer microarray, sandwich
Form: DNA with 2'F-ANA
Matrix: in vitro
Tested at: 200 nM
Setting: whole 15-mer aptamer, many near background
With: Cy3 exosite-II aptamer, 400 nM
Direction: higher = stronger binding
Endpoint: mean fluorescence intensity
Oligonucleotide: GGTTGGTGTGGTTGG
Modification = 2'F-ANA at 3 4 6 9 13 14 15; result = 357 a.u.
Modification = 2'F-ANA at 2 3 5 6 8 9 13 14; result = 125 a.u.
Modification = 2'F-ANA at 1 8 9 11 12 13 14 15; result = 80.2 a.u.
Modification = 2'F-ANA at 1 2 3 4 6 9 10; result = 153 a.u.
Modification = 2'F-ANA at 1 2 4 5 6 8 10 12 15; result = 49.5 a.u.
Modification = 2'F-ANA at 1 2 3 9 10 15; result = 64.8 a.u.
Modification = 2'F-ANA at 2 6 10 11 13 14 15; result = 71.2 a.u.
Modification = 2'F-ANA at 2 3 4 5 6 8 10 11 13 15; result = 52.6 a.u.
Modification = 2'F-ANA at 4 6 7 9 10 12 14; result = 62.6 a.u.
Modification = 2'F-ANA at 3 4 5 6 11 12 13; result = 106 a.u.
Modification = 2'F-ANA at 2 3 6 7 11 14; result = 350 a.u.
Modification = 2'F-ANA at 4 5 6 7 10 11 12; result = 61.9 a.u.
Modification = 2'F-ANA at 5 7 8 9 11 13; result = 61.7 a.u.
Modification = 2'F-ANA at 2 3 5 7 9 10 12 15; result = 64.8 a.u.
Modification = 2'F-ANA at 2 3 4 5 6 9 11 12 14 15; result = 184 a.u.
Modification = 2'F-ANA at 2 3 5 7 8 10 11 13 14; result = 52.1 a.u.
Modification = 2'F-ANA at 2 3 6 8 12 13 14 15; result = 429 a.u.
Modification = 2'F-ANA at 2 5 6 7 8 12 13 14 15; result = 48.7 a.u.
Modification = 2'F-ANA at 1 2 4 9 10 12 14 15; result = 46.8 a.u.
Modification = 2'F-ANA at 2 9 10 11 13 14 15; result = 74.1 a.u.
Modification = 2'F-ANA at 1 3 4 5 6 7 8 11 13 14; result = 48.5 a.u.
Modification = 2'F-ANA at 2 3 6 8 9 10 11; result = 308 a.u.
Modification = 2'F-ANA at 1 2 5 6 9 10 11 12 13 14; result = 45.5 a.u.
Modification = 2'F-ANA at 6 8 9 11 12 15; result = 612 a.u.
Modification = 2'F-ANA at 1 3 6 7 8 9 14; result = 99.7 a.u.

Sample 3
Target: CCNE2, cyclin fold, Cln2 fusion (human)
Method: yeast growth competition, sequencing
Matrix: yeast
Setting: weak parent motif
Baseline: not given
Direction: higher = stronger binding
Endpoint: normalised enrichment score
Starting sequence: MASTL docking peptide (human); PMIAKNLMCELDE
Change = C9Y; result = -0.311
Change = I3Q; result = -0.0759
Change = L11W; result = 0.138
Change = K5A; result = 0.0397
Change = N6P; result = 0.00626
Change = M2R; result = -0.083
Change = N6V; result = 0.0942
Change = I3N; result = 0.0802
Change = I3F; result = -0.118
Change = L11Q; result = 0.166
Change = A4I; result = -0.0585
Change = L11H; result = 0.0808
Change = K5Y; result = -0.398
Change = A4H; result = 0.0349
Change = L7P; result = -0.235

Sample 4
Target: Sal-like protein 4, full length isoform A (SALL4, Homo sapiens, UniProt Q9UJQ4, residues 1-1053)
Chain of UniProt Q9UJQ4 (whole entry, looked up): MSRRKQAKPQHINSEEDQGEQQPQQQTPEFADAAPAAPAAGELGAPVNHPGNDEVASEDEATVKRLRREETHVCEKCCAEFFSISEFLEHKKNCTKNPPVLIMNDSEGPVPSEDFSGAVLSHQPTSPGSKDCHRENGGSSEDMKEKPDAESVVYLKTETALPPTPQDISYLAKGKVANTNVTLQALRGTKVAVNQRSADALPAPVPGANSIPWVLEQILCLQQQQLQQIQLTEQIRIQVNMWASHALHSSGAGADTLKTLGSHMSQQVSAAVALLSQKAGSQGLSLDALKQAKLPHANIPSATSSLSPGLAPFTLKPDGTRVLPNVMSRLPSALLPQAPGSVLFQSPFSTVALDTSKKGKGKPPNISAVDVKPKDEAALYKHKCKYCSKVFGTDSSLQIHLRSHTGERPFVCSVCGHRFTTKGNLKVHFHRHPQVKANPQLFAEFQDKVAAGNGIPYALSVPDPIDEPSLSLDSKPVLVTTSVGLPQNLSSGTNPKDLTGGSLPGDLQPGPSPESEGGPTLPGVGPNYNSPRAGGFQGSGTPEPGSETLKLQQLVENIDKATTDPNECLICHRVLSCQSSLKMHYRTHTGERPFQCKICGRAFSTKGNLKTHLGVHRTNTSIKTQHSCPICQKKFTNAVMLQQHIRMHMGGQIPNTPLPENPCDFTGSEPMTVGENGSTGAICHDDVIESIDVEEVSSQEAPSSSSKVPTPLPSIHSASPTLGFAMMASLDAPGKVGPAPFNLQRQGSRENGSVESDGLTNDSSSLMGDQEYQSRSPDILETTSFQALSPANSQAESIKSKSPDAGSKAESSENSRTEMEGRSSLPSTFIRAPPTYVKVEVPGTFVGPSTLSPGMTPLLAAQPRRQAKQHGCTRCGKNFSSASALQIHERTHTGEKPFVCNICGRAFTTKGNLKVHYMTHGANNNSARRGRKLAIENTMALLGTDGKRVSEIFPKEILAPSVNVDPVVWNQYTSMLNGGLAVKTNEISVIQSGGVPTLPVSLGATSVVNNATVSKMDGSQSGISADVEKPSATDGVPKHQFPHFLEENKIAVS
Method: universal PBM
Form: double-stranded DNA, one strand shown
Matrix: in vitro
Tested at: 600 nM
Setting: 8-mer, flanks averaged, mean of replicates
Direction: higher = stronger binding
Endpoint: E-score
Oligonucleotide = CGTTACTA; result = 0.156
Oligonucleotide = ATTTAACC; result = 0.171
Oligonucleotide = ACCACATA; result = 0.207
Oligonucleotide = TAGATGGA; result = -0.0149
Oligonucleotide = CGCTGCGA; result = -0.182
Oligonucleotide = CGCTCTGC; result = -0.222
Oligonucleotide = CCCGAACA; result = -0.051
Oligonucleotide = ATTCATCG; result = 0.123
Oligonucleotide = CGAATTTA; result = 0.164
Oligonucleotide = GTTGAAGA; result = 0.161
Oligonucleotide = TCGGGCCA; result = -0.291
Oligonucleotide = CCACAGAG; result = -0.129
Oligonucleotide = AAACGGAG; result = -0.0307
Oligonucleotide = GCCATTAA; result = 0.141
Oligonucleotide = AGGGAAGA; result = -0.0783
Oligonucleotide = TCAAAGCA; result = 0.152
Oligonucleotide = CTTTTAGC; result = 0.0367
Oligonucleotide = CTTGTTCC; result = 0.0483
Oligonucleotide = AGCCCCAA; result = -0.271
Oligonucleotide = GTGAGCAA; result = -0.127
Oligonucleotide = AAATACCT; result = 0.176
Oligonucleotide = ACCCGCTA; result = -0.137
Oligonucleotide = AGTTGATG; result = 0.179
Oligonucleotide = TCGTACAA; result = 0.24
Oligonucleotide = CGATCTCA; result = -0.0314

Sample 5
Target: RNA binding protein fox-1 homolog 2, RRM domain, GST-SBP tag (RBFOX2, Homo sapiens, UniProt O43251-10, residues 100-194)
Method: RNA Bind-n-Seq
Form: RNA
Matrix: in vitro
Tested at: 365 nM
Setting: natural RNA segment, single round, ends assumed
Baseline: no-protein control
Direction: higher = stronger binding
Endpoint: RBNS enrichment (R)
Constant ends, left off below: GGGAGUUCUACAGUCCGACGAUC … UGGAAUUCUCGGGUGCCAA
Oligonucleotide = UUAGAGGAGCGCUGUCCCUAUCCCUUGCUCCUUCUGGCCGGUCCGCAUUUCUGUUCACUAACCCCACUCCAGGACACUGCCCCUGAAGCCUUUGCAUCUCUGCUCUUCAC; result = 0.882
Oligonucleotide = CACUUUGAGGAGAGCAAAGCACAAGCUUGCCUGAAGAAUGGAUCCCAACUUCUCCCCGGCAGCUCUGCCUCCCUAAGUCUGUGAAGCCGCAGCCCUGCCCUGUCCUGUCC; result = 0.577
Oligonucleotide = CAGCAAUUGAAAUUUAUGUGAAUUAUUUUGAUUGUAGAAGCACUAUAAUAUGUGCUGAAACUAAAUUUCUUUAAUAUUUUCUAUUCCUGUCAGCACCUUUUCUAGCAGCU; result = 1.13
Oligonucleotide = AUGGACUUUCUUCCCCCUCACAAGGCUGGGGGCCUCCUGCUCUCGUCCCUGGCCCUCCCUGCACAGGGCAAAGCCAGUCUGGGCUCUGGCACACAGAGUUCAUGUUUGCG; result = 1.97
Oligonucleotide = GCUCUGUGCCUUUCCUGGGGAGGGAAGGGGAUGAACUGGUAGAUUUGAAAGCAGUAUGGCUUCUUCUGUGGGUCUCCCUCUUACUAGACAAGGUGAAAUGAUAAUUCGUG; result = 1.28
Oligonucleotide = CAAGAGUUUCUCUUCCAGAAGCCAAGAGGAGAACAAAGGUCCUAAUGCUGUACUAUUCCACCCUUUGGACGCCUCAUCCAGGACGCAGAGGACUCUAGGUUUAACAUUUU; result = 0.434
Oligonucleotide = AAGAGGCCAGAUCCUGGCAUUUUGCACACAUUUUGGUGUAUAUACAGUGUAUCACUCAGUAAGAAUGAUAUGACUUGGCAACUGCAUAGCCACUGGCCAAGACUUGCUGA; result = 0.405
Oligonucleotide = UUUUAAGUGUUGAUGCUUUGUAGUACUACAAAGCUAAAUUGUGCAAACAAAACAUAUUUAACAGAGUAAUUGGGAGGAUAAAGCAAUAAUAAAUUCAAAUAUAUUUUUCU; result = 0.371
Oligonucleotide = ACAAGAGAGCAGAGAAUCUGCUGAUGUGGCUGCGCUUACUUUUAGUGACUUUAUGUACUUAUAUUAACAGCUGGAAAUAGGUUGUUGGGUUUUGAGCAGGCUGUUAUAGU; result = 0.574
Oligonucleotide = CCUUUCAGGACAUCUGGGUCUAAUACAGAAGAAUUAAUAAACUGGAUGAUUACUACAGCAAAAGCAGCUAACGUUUUACUUUGUAUCUUGUGUCCUCAGAAUUAAGAACU; result = 0.395
Oligonucleotide = UCCAGAGAGCAAAGCCCUGGGACUGGAUUUCCCUGUGCCUACUUCAUGAUCAUGAAUUCCAGUUAAUUUAUAAAGAGGCGAUUUUUGUGUGCCAUUCACACUGGUCUUUU; result = 0.622
Oligonucleotide = UGGUGUUAAAACACUUCUGUCCUGUGAGGUUUCCCAAUGGUGUUUUUCUUGUAAAUGUGUUGGACAAAUGUGAAGAUGCAUUGUAGUUUAACCAUAUGCCCACAUUUAGU; result = 0.461

Mixed results
Molecule = PhoQ, residues 284 288 289 292 302 303 SLANKL; target = PhoP, residues 12 14 15 18 19 LWHSL (Escherichia coli, UniProt P23836); assay = Sort-seq, item: YFP reporter; test system = E. coli; setting = PhoQ-PhoP variant library, with: 10 µM Mg2+; scale = baseline: high Mg2+ state, higher = stronger signaling; endpoint = fold induction; result = 5.95
